Measured values from different studies.
Each numbered part is a random draw from the data of one study; scales do not carry over between parts.

Block 1
Target: RNA binding protein fox-1 homolog 2, RRM domain, GST-SBP tag (RBFOX2, Homo sapiens, UniProt O43251-10, residues 100-194)
Technique: RNA Bind-n-Seq
Form: RNA
Matrix: in vitro
Tested at: 365 nM
Setting: natural RNA segment, single round, ends assumed
Baseline: no-protein control
Direction: higher = stronger binding
Quantity: RBNS enrichment (R)
All sequences stand within: GGGAGUUCUACAGUCCGACGAUC … UGGAAUUCUCGGGUGCCAA
Residues (chain): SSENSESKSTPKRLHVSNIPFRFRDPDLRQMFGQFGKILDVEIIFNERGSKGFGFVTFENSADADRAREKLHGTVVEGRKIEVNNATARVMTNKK
CUCUUCUAGACCCACAGCUUCUUGAUCCACUUGUGGUUUCCAUGUCACUAAUGUAGAAACAUCAUGGACUAGCAUCCCCAGUCUUUGCCCUCAUCCAGCUGUCGCAGCGC: 0.811
CCAGGACGACUGUGUCAGCAAAGAGCGCAGCUCCUCCAGGUGACCCAGCAAGGCUGUUGUCUGUAUGGAAGGACACGCUCGCGGCAAGGGCAGGGCCUGGGGAGGGUGGC: 0.321
CCAUCCACAGUUGUCAGUUGUGAAGAGGGGCCAGAUGACACCCUAAAGCAGGCUGAUCGGGCAAUGGGAGGUGGCCAGGCCUGCCAGCCCCUCGGCUCUGCCGCGGUGGG: 0.467
AAGGCCAAGUGCAGUGGCUCACACCGGUAAUCCCAGCACUUUGGGAGGCCGAGGUGGGAGGAUUGCUUGAGCUCAUGAGUUCAAGACCAGCCUGGGCAACAUAGCGAGAC: 0.668
AGAGUUUUUGAAAUAAUUUAUGCAAGUAUUUGGUUUCCAUGUUUACAAUUUAUACAGCUUUCCUAGCAUUUUAAAUGGAAAUGUCAAUAAAUGCUAUGAAUUGGUGUCAA: 1.61
AGACAUCACAUACCUUCAGCACUUCUCACAAUGUAACUGCUUUAGUCAUAUUAACCUGAAGUUGCAGUUUAGACACAUGUUGUUGGGGUGUCUUUCUGGUGCCCAAACUU: 0.264
UAUGCUGGCAAUAUAGGAUGGUAUGUAAUGGACAGAACUGAUGCAGAUGGUUGAAUGCGCUUGUACUAUAUGCUAAAAUAUGGAAAAGGAAAAAAAAAUCUCACAAGUUC: 14.1
GGAGGACGUGUUGCCUCAGAACAUGGGGACUUCCUAGAGGUCUGCUGAGCCCACAGAAAGAGCCAGGAAAGCAUUAACAGAAAAGCCUGUCAGGACAUGUCCACCACUGG: 0.613
GAUAAUGUUUUUAAAUUUCAUUAUCAAACUUGGGCAAUUCUGUUUGUGUAACUCCCCGACUAGUGGAUGGGAGAGUCCCAUUGCUAAAAUUCAGCUACUCAGAUAAAUUC: 1.03
UAUCUUUUUUCUCACUUAUUUUUGCGGUGAAAGUCGAGGGCAUGCAAGAGUUUCUCUUCCAGAAGCCAAGAGGAGAACAAAGGUCCUAAUGCUGUACUAUUCCACCCUUU: 2.16
ACAAAUUUAAUAUAAAUCAAAGACCAGCAUUUUAACUACAAAUGGUAGUUGUUUAACCAUCAUAUUUCUCUUUAAAGUACACAAAAUUCUUGGAUCUGGAAAGAUAACUC: 0.728
ACCCUCCAGGUGCCCCUUGCCACACUGAAUGUGGGAAAGUGUGCUGUGGCUACUUCGUGGUCAGAGUGAGCCCCUUGCAGAAUCCCCACUCCAGCAAACAAAGCAACGGC: 0.559

Block 2
Target: Histone acetyltransferase KAT6A, winged helix 2, GST fusion (KAT6A, Homo sapiens, UniProt Q92794, residues 85-181)
Technique: protein binding microarray
Form: double-stranded DNA, one strand shown
Matrix: in vitro
Tested at: not given
Setting: 8-mer, flanks averaged, mean of 2 arrays, mostly near background
Baseline: not given
Direction: higher = stronger binding
Quantity: E-score
Target sequence (chain): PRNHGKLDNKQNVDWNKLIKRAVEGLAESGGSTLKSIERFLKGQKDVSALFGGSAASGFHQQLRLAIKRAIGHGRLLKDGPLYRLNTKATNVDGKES
GAGTGTGC: 0.0523
CCTAAAGG: 0.121
CGTACACA: 0.0232
TACCCGAA: -0.133
CACCGCGG: 0.211
GGGCATGA: -0.131
GAACCAGC: 0.123
AACCAGCA: -0.0246
ACCCTGGG: 0.124
GAAACTTC: 0.0445
TCTTTGCA: 0.122
ATAACGAG: 0.0314
GGCTGCAC: 0.14
GCTGGCGA: -0.00041
ACACCGCA: 0.129
GCCATTCA: -0.0597
CGTGAGCC: -0.0366
GAGATCCC: 0.195
CTGTTGTC: 0.0651
ATGTTTGG: -0.151
ATCCCTGA: -0.0638
AACTTACG: -0.107
CGCGTTTC: -0.0838
ACGCGAAC: -0.076
ATGCACGA: -0.0599

Block 3
Target: RING finger protein unkempt homolog, zinc fingers 1-6, GST-SBP tag (UNK, Homo sapiens, UniProt Q9C0B0, residues 30-357)
Technique: RNA Bind-n-Seq
Form: RNA
Matrix: in vitro
Tested at: not given
Setting: RNA with constant flanks, ends assumed
Baseline: input RNA pool
Direction: higher = stronger binding
Quantity: bound/input enrichment
All sequences stand within: GGGAGUUCUACAGUCCGACGAUC … CAACAGAGGAUUGAGCAUCA
Target sequence (chain): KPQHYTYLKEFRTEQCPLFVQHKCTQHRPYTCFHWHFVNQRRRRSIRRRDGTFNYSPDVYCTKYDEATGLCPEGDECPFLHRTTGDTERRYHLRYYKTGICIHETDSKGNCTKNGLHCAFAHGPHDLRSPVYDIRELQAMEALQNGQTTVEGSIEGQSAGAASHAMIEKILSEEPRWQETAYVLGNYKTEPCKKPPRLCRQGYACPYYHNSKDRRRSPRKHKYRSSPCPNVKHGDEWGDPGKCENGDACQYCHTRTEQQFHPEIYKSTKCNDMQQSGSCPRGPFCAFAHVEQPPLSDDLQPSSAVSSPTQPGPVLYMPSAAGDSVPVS
GCUUCGACCCAGCUGAGGAGCGAAGAGCUGCUGGCAGCGCCGAUUCCCAGCACGCCGCUUUUCCGAACUUCAGUUGUCAAAAUGGGCAGAAUCUUUCUUGACCAUAUCGGUGGUACCCGU: 0.109 ratio
UUGAAGCAAGUUCUCGGCCAGAUGGUGAUUGAUGAGGAGCUUCUGGGAGAUGGACACAGCUACCGUCCUAGAGCUAUUCAUUCAUGGCUGACCAGGGCCAUGUACAGCCGGCGCUCGAAG: 0.157 ratio
CAGGUCUAUGGAGUCGAGGUGCCUGCAGAGGGUGAGGCCGAGAAGCCUUGGUGGCAGGUAUUCCGUGAUGACCUUACCAAGCCAAUCAUUGACAAUAUUGUGUCUGAUCUCAUUCAGAUU: 0.0862 ratio
UAAUAUGACUCUCCAUAUUUUGGUACCAAUUCUGAGACUGUAUGAAUUUUCAGGUGGAACUUCCGCACACACUGAAGCAAAGUUGUGAAGUGCAGGGCGGGAGGUGGGCGUGAGCUUUCU: 0.126 ratio
GUACUGCUGGUAUUGUACCAGGAACAUUUUCUUUUAUUGUUACUUGCUUUUUAAACUUUGUUCCGCCACUUAAAGAAAACCUGCUCAUGGCACAACUUGCCUCAAAUCCAUUCCAAGUUG: 0.364 ratio
GGGCACAUCCAGCUGAUGAUCCCUGGAGAGUCGGCUUGCUUCGCGUGUGCGCCACCACUUGCCGUUGCUUCAAAUAUUGAUGAAAAAACCCUGAAACGAGAAGGCGUCUGCGCAGCCAGU: 0.127 ratio
GCAAAAGUUUAUGUCUCAUUGGAUCAACCUGUGACUGCUUUAAAUCUUUUCAAACAAGGCUCCGAUAAGUUUCCAGGAGAAGUAACCCUGCUCUGUGGAAUUGCAAGAAUCUAUGAGGAA: 0.142 ratio
UGUUUCUUUCUUGAAAGAAGUGGAGUCUCCUUAUGAAGUCCAUGACUAUACCAGGGCCUAUUCCGGAGAUACUUCCGAGGCCAAGGAGUUUGCCAAGCAGUUCCUUGAACGCCGUGCCAA: 0.1 ratio
AAUGGUGAAUCAGGAAAAGAAAUGGAUGACGAUAAAGAUGCAAAUAAAUCUGAAAUAAGCUCCGUGUUUGAGAUUGCGCUGAAGAGAAAUAUGCCUGUCAGUUUUGAGGUUAUUAAAGAA: 0.285 ratio
UCCAAGUUACAAAAGUUUGAGGUGCAGAGGGAAGGCCAGAUUUUUUUUUUAAUGAAAUUAUACCGAUCCGAUCUCAGUAUUUAAACUGUUCCUCAAUUUUGUGAGGCUGUGUUGGAAAUA: 0.86 ratio
GAGAUCGAUUGCACCAUGCUCACCCCUGAGCCAGUUUUAAAGACCUCUGGCCAUGCCGACAAAUUUGCUGACUUCAUGGUGAAAGACGUAAAAAAUGGAGAAUGUUUUCGUGCUGACCAU: 0.0987 ratio

Block 4
Target: Sal-like protein 4, full length isoform B (SALL4, Homo sapiens, UniProt Q9UJQ4-2, residues 1-616)
Technique: universal PBM
Form: double-stranded DNA, one strand shown
Matrix: in vitro
Tested at: not given
Setting: 8-mer, flanks averaged, mean of replicates
Direction: higher = stronger binding
Quantity: E-score
Residues (chain): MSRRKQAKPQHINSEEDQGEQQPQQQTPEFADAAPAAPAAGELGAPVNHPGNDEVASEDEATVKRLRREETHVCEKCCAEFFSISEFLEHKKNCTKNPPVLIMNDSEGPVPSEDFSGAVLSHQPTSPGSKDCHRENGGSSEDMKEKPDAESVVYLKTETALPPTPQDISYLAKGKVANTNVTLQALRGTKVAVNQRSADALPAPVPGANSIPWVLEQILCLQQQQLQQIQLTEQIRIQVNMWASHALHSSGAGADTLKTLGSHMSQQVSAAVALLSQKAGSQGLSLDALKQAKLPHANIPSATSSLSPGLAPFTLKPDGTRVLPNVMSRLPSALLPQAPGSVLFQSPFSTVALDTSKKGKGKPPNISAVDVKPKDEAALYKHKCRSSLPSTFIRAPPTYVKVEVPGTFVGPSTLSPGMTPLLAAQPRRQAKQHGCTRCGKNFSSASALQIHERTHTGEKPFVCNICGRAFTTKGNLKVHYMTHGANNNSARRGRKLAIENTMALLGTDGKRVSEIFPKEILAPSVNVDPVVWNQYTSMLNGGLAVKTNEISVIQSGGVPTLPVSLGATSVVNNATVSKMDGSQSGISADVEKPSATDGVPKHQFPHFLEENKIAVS
CGGTTAAG: 0.0678
CTTCATTC: 0.0166
AGAGGCCA: -0.162
AACACAGT: 0.0577
CAGAGATC: -0.189
CCCTACAC: 0.0347
AAGTGGAT: 0.00267
GGATGTTA: 0.0211
CATGCTAA: 0.126
CTGGCTTC: -0.277
CCATTTGA: -0.00333
ATCCGATA: 0.153
AACGGCTC: -0.193
AGTGCGGC: -0.298
CCGCCCGG: -0.358
AACCTTTA: 0.182
CGGAAAAA: 0.146
AAGTACTA: 0.235
CTCGATAC: 0.114

Block 5
Target: Interferon regulatory factor 5, full length, phosphomimetic (IRF5, Homo sapiens, UniProt Q13568-2, residues 1-514, S451D/S453D/S456D/S462D)
Technique: protein-binding microarray
Form: double-stranded DNA, one strand shown
Matrix: in vitro
Tested at: 940 nM top
Setting: 60-bp whole probe
Together with: salmon DNA 0.4 mg/ml
Baseline: random background probes
Direction: higher = stronger binding
Quantity: fitted relative affinity
All sequences stand within: GCCTAGCAC … GTCTTGATTCGCTTGACGCTGCTG
TTTCGTATCTTCATTGTCATGTGCTAG: 8.32 z-score
TTAGGTTTCGGTATCGGTCAGTGCTAG: 15.6 z-score
GTCGGTCTCGGACTGGGGACGTGCTAG: 1.34 z-score
TTAGGACTGCTTTTCCTTTAGTGCTAG: -0.128 z-score
AGTGGGGAGGGAGAGAATCCGTGCTAG: 0.939 z-score
GACGGTATCGGACAGGGGACGTGCTAG: 2.36 z-score
AGATTTTTCTCAACCGTTGTGTGCTAG: 0.414 z-score
GCTGGTCTCTAACTCAAGATGTGCTAG: 0.211 z-score
GACTAACTGGGGTTTCGAGACGTGCTA: 2.28 z-score
TTAGAGCTGGGGTTTCGATTAGTGCTA: 4.9 z-score
GACCATTTCGGGTATCGAGACGTGCTA: 1.24 z-score
GACCATATCAGTCTCGAGACGTGCTAG: 1.6 z-score
AGATGGTCCTCTCTCTATTCGTGCTAG: 0.0383 z-score
GACGGTATCGGACTTGGGACGTGCTAG: 2.13 z-score
GACGGTTCCCTTTACCTGACGTGCTAG: 0.503 z-score
TTAGATTTCAGCTTCGATTAGTGCTAG: -0.00767 z-score

Block 6
Target: Prothrombin, mature alpha-thrombin (F2, Homo sapiens, UniProt P00734)
Technique: aptamer microarray, sandwich
Form: DNA with 2'F-ANA
Matrix: in vitro
Tested at: 200 nM
Setting: whole 15-mer aptamer, many near background
Together with: Cy3 exosite-II aptamer, 400 nM
Direction: higher = stronger binding
Quantity: mean fluorescence intensity
Strand: GGTTGGTGTGGTTGG
2'F-ANA at 1 2 5 6 10 14 15: 48.8 a.u.
2'F-ANA at 1 2 5 7 8 13 14 15: 45.3 a.u.
2'F-ANA at 1 3 4 5 9 11 14: 46.5 a.u.
2'F-ANA at 1 4 5 6 8 9 11 12 14: 45.2 a.u.
2'F-ANA at 1 2 4 7 12 14: 89 a.u.
2'F-ANA at 1 2 3 4 6 7 8 9 13 14: 77.5 a.u.
2'F-ANA at 1 5 6 7 12 14 15: 44.8 a.u.
2'F-ANA at 1 2 5 8 9 11 13 15: 52.9 a.u.
2'F-ANA at 1 2 3 4 6 7 8 9 10 12 14: 64.4 a.u.
2'F-ANA at 1 4 6 8 9 12: 309 a.u.
2'F-ANA at 1 3 7 8 13: 325 a.u.
2'F-ANA at 1 6 8 10 11 13 14: 49 a.u.
2'F-ANA at 3 4 5 7 8 9 10 12: 62.9 a.u.
2'F-ANA at 1 3 6 8 9 10 13 14: 59.4 a.u.
2'F-ANA at 1 8 9 10 14: 62.9 a.u.
2'F-ANA at 1 4 5 6 7 8 15: 121 a.u.
2'F-ANA at 3 6 10 12 13 14 15: 413 a.u.
